Measurements pooled from the literature.
Protocols differ between the studies behind these lines. ± marks the error that the study gave.
Cell line: SGC-7901

Structure (SMILES) | assay | conditions | IC50 [µM]
[NH2][Pt]1([NH2])([Cl])([O]C(=O)C(F)(F)F)[O]C(=O)C2(CC(=O)C2)C(=O)[O]1 | cell growth or viability, MTT | – | 20.2
O=C1/C(=C/c2ccccc2F)CNC/C1=C\c1ccccc1F | cell growth or viability, MTT | 72 h | 6.1
N#Cc1c(F)c(F)c2nc(SCc3ccccc3)nc(N)c2c1F | cell growth or viability, MTT | 96 h | 6.26
CC(C)C1OC(=O)C(NC(=O)c2cccc(O)c2)C(C)OC(=O)C(C(C)C)OC(=O)C(C)(C)C(=O)C(Cc2ccccc2)OC1=O (stereo not shown) | cell growth or viability, CCK-8 | 72 h | > 20
CCCCSc1nc(N)c2c(F)c(C#N)c(F)c(F)c2n1 | cell growth or viability, MTT | 96 h | 11.6
COc1ccc(C(=O)c2cc(C(=O)c3cc(Cl)ccc3O)c[n+]3c2NCCCC3)cc1 | cell growth or viability, MTT | 96 h | 10.5
[NH2][Pt]1([NH2])([Cl])([O]C(=O)C(Cl)Cl)[O]C(=O)C2(CC(=O)C2)C(=O)[O]1 | cell growth or viability, MTT | – | 16.8
CCC(C)C1OC(=O)C(C)(C)C(=O)C(Cc2ccccc2)OC(=O)C(C(C)C)OC(=O)C(NC(=O)c2cccc(O)c2)C(C)OC1=O (stereo not shown) | cell growth or viability, CCK-8 | 72 h | 16.7
CSc1nc(N)c2c(F)c(C#N)c(F)c(Cl)c2n1 | cell growth or viability, MTT | 96 h | 6.65
O=C(/C=C/c1ccc2c(c1)C(=O)N(CCCc1ccccc1)CC2)NO | cell growth, SRB | 72 h | 2.38 ± 0.61

Excerpt of the above:
Structure (SMILES) | assay | conditions | IC50 [µM]
O=C1/C(=C/c2ccccc2F)CNC/C1=C\c1ccccc1F | cell growth or viability, MTT | 72 h | 6.1
N#Cc1c(F)c(F)c2nc(SCc3ccccc3)nc(N)c2c1F | cell growth or viability, MTT | 96 h | 6.26
